Measured values collected from several papers.
Each numbered part is a random draw from the data of one study; scales do not carry over between parts. Substitutions count along the parent as printed.

Study 1 — target: CCNE2, cyclin fold, Cln2 fusion (human); technique: yeast growth competition, sequencing; medium: yeast; setting: strong parent motif; relative to: not given; reading: higher = stronger binding
Parent: E2F3 docking peptide (human); PPAKRRLELGESG; partner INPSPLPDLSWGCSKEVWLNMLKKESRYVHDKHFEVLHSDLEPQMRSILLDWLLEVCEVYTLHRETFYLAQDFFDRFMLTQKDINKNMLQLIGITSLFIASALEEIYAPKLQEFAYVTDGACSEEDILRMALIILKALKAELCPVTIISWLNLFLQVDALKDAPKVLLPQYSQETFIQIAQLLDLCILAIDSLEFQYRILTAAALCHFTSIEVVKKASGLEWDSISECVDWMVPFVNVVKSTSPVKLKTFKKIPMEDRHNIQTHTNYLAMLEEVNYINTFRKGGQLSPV
`PPAARRLELGESG [K4A]`: “normalised enrichment score” 0.69.
`PPAKRALELGESG [R6A]`: “normalised enrichment score” 0.0793.
Under “normalised enrichment score”, `PPAKRRLEFGESG [L9F]` is recorded as 4.81.
`PPAKRRLELGASG [E11A]`: “normalised enrichment score” 1.48.
Under “normalised enrichment score”, `PAAKRRLELGESG [P2A]` is recorded as 1.09.
For `PPAKRRLEAGESG [L9A]`, “normalised enrichment score” read 0.26.
`APAKRRLELGESG [P1A]`: “normalised enrichment score” 1.08.

Study 2 — target: NFIL3, bZIP domain (human); technique: DHFR protein complementation; medium: yeast; relative to: wild-type JUN-FOS pair; reading: higher = stronger binding
Setting: single substitutions, most at no-binding floor
Parent: JUN, bZIP domain (human); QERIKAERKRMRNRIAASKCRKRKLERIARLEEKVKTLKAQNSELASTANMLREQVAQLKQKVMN; partner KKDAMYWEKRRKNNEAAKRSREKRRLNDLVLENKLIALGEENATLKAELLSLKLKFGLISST
With `Q55P` the binding fitness was -1.35 natural log.
`L45A` has a binding fitness of -1.55 natural log.
`E32D` has a binding fitness of -1.36 natural log.
With `Q41P` the binding fitness was -1.49 natural log.
`L45H` has a binding fitness of -1.48 natural log.
The binding fitness of `M51E` is reported as -1.35 natural log.
With `T48P` the binding fitness was -1.53 natural log.
The binding fitness of `A29C` is reported as -1.42 natural log.
For `A40Y`, the binding fitness was -1.4 natural log.
The binding fitness of `T37D` is reported as -1.49 natural log.
For `V56H`, the binding fitness was -1.58 natural log.
The binding fitness of `E44N` is reported as -1.47 natural log.
The binding fitness of `L52N` is reported as -1.5 natural log.
For `E32W`, the binding fitness was -1.58 natural log.
The binding fitness of `T48I` is reported as -1.28 natural log.
For `I28K`, the binding fitness was -1.47 natural log.
With `A46M` the binding fitness was -1.15 natural log.
`Q58V` gave a binding fitness of -1.4 natural log.
`M51Y` has a binding fitness of -1.51 natural log.
For `A40T`, the binding fitness was -1.4 natural log.

Study 3 — technique: DHFR PCA, deep sequencing; medium: yeast; with: (+)-ABA 710 µM; relative to: wild-type fitted maximum; reading: higher = stronger binding
Target: ABI1, truncated, D143A, DHFR fusion (Arabidopsis thaliana)
Setting: methotrexate growth selection, single substitutions
Parent: PYL1, truncated, DHFR fusion (Arabidopsis thaliana); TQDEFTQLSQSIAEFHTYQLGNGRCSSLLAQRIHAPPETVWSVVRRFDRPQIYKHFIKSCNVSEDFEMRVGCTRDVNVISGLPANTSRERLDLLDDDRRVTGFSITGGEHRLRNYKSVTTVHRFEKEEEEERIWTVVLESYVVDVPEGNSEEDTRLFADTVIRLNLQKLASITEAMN; partner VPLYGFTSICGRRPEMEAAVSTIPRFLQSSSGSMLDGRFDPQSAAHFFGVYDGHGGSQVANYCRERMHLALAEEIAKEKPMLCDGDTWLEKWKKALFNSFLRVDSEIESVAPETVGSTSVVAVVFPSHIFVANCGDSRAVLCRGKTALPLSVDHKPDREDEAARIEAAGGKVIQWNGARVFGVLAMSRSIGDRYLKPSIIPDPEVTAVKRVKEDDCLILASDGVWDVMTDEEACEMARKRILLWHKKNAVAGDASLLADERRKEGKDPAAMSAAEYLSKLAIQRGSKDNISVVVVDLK
`S59Q` — result for “relative binding score”: 100%.
`L138D` — result for “relative binding score”: 1.13%.
`E67T`: “relative binding score” 96.4%.
For `D3M`, “relative binding score” read 96.4%.
`V78S`: “relative binding score” 75.6%.
For `R32K`, “relative binding score” read 101%.
`N165M`: “relative binding score” 6.83%.
Under “relative binding score”, `F103S` is recorded as 5.12%.
Under “relative binding score”, `P83D` is recorded as 89.2%.
Under “relative binding score”, `D144E` is recorded as 93.9%.
For `E131T`, “relative binding score” read 111%.

Study 4 — technique: protein binding microarray; molecule type: double-stranded DNA, one strand shown; medium: in vitro; concentration: not given; relative to: not given; reading: higher = stronger binding
Target: Histone acetyltransferase KAT6A, winged helix 2, GST fusion (KAT6A, Homo sapiens, UniProt Q92794, residues 85-181)
Setting: 8-mer, flanks averaged, mean of 2 arrays, mostly near background
Construct (chain): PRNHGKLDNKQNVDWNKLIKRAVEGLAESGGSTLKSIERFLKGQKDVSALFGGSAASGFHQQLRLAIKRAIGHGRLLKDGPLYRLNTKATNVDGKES
For `AGAGGGGG`, the E-score was 0.101.
`CGACCTGA` has an E-score of 0.13.
With `GACCCTCC` the E-score was 0.142.
`CCTAGTGA` has an E-score of -0.0222.
`GAGGCGAC` gave an E-score of -0.024.
With `CTTTCGCA` the E-score was 0.0358.
For `GAGAGACC`, the E-score was -0.086.
`ATCTATTG` gave an E-score of -0.0308.
`GATACTCA` has an E-score of 0.0397.
For `CACTGCCG`, the E-score was 0.266.
`TTGCGAAA` gave an E-score of 0.0832.
With `ATCGCAAA` the E-score was 0.117.
`CAATTGTC` gave an E-score of -0.189.
With `ACGTAAAC` the E-score was -0.209.
The E-score of `TCGCAGAA` is reported as 0.128.
The E-score of `CCAGAAGC` is reported as 0.104.
For `GCTCCTTA`, the E-score was -0.0672.
For `TCTCAGAA`, the E-score was 0.0811.
`CCTACGGC` gave an E-score of 0.0131.
With `ATAAGGAA` the E-score was -0.101.
`CGGAGAAA` has an E-score of 0.134.
The E-score of `ACTTTAAG` is reported as 0.0486.
`TCCTTCAA` gave an E-score of -0.0803.
`ATCTGTCC` gave an E-score of 0.0548.
With `ATTGGCTC` the E-score was 0.0505.

Study 5 — technique: universal PBM; molecule type: double-stranded DNA, one strand shown; medium: in vitro; concentration: not given; reading: higher = stronger binding
Target: Sal-like protein 4, full length isoform B (SALL4, Homo sapiens, UniProt Q9UJQ4-2, residues 1-616)
Setting: 8-mer, flanks averaged, mean of replicates
Construct (chain): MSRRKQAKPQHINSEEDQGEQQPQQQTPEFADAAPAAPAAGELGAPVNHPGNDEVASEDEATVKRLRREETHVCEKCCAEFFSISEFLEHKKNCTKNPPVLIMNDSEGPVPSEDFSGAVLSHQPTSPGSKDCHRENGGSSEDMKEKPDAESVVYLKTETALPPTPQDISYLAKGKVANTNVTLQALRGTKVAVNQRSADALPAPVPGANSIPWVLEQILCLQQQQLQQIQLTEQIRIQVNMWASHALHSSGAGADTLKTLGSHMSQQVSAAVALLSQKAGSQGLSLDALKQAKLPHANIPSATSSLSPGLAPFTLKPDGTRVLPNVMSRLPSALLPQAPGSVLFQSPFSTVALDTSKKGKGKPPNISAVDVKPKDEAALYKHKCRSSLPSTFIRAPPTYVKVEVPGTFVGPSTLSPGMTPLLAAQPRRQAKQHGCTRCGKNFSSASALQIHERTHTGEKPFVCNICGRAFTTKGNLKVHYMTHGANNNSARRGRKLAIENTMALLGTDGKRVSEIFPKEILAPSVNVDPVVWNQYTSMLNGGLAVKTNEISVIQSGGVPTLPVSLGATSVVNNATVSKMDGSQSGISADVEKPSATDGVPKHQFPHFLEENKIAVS
With `AGTTAATC` the E-score was 0.154.
For `CTAAGGAC`, the E-score was -0.0684.
For `GCCACTCC`, the E-score was -0.134.
`CTGCGCAA` has an E-score of -0.0893.
`CGCACGAG` gave an E-score of -0.263.
With `CCAAGCAG` the E-score was -0.177.
With `CGGACGAG` the E-score was -0.217.
`AACTAACC` has an E-score of 0.11.
`GCGGAGTA` has an E-score of -0.133.
`AGATTGAC` has an E-score of -0.0674.
`GTATTTGA` has an E-score of 0.187.
`GCGTTGCC` has an E-score of -0.183.
The E-score of `CTGTGACA` is reported as -0.0977.
With `CGCATAAG` the E-score was 0.18.
For `ACTGGGCA`, the E-score was -0.173.
`GACCCAGC` has an E-score of -0.309.
With `AACTCTCC` the E-score was -0.129.
With `AATCAAGG` the E-score was 0.103.
With `GGTACAAA` the E-score was 0.198.
With `GGGCACCC` the E-score was -0.265.
`CAGTTCGG` gave an E-score of -0.148.
The E-score of `GCGAGTAC` is reported as -0.00314.
`CTGGTTGC` has an E-score of -0.207.
The E-score of `CCAACCGA` is reported as -0.131.
`CCAACTTC` has an E-score of -0.0374.

Study 6 — technique: RNA Bind-n-Seq; molecule type: RNA; medium: in vitro; concentration: 365 nM; relative to: no-protein control; reading: higher = stronger binding
Target: RNA binding protein fox-1 homolog 2, RRM domain, GST-SBP tag (RBFOX2, Homo sapiens, UniProt O43251-10, residues 100-194)
Setting: natural RNA segment, single round, ends assumed
Construct (chain): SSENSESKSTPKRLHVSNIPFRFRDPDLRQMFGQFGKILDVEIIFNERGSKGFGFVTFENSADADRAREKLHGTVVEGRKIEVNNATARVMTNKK
Under “RBNS enrichment (R)”, `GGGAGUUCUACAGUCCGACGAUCCAUCUCCCCACUUUAGGCUUCUCAAACAGACUUUUGACACCUCUCAAGUUCAGAGCUCUGAUGUGGAAAGACAGGAGGUGUGGGGAAGGAGGGGGAUUUCGUGUGUUUGCUGGAAUUCUCGGGUGCCAA` is recorded as 0.662.
`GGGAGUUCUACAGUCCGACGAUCCUACUAGUAACUUUAUCAAAUUUCAAAUUACAUGGUAAAAGAUCUGUAAAGGCUGCAUCCAUGUUAGUUGGCACAUAAAGGCAAUUAAUUGUAGAAGUUGAAACAUGAUCUGGAAUUCUCGGGUGCCAA`: “RBNS enrichment (R)” 0.256.
For `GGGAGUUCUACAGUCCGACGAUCUCGCAGGAGCAUUAACCUCCUGGAGACGGAGCUGGGAGGACUCGGUGCAUCCCUGUGUUGAUAGCUCCUGCUUCGGUAGGGAACUCUGAGAUCCUGCUUCCAUCUCCAGCUGGAAUUCUCGGGUGCCAA`, “RBNS enrichment (R)” read 0.481.
For `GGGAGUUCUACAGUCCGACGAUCUGGUUUUGCUUUUUGUAUUGUCUAAUCUCUUUAAUGACUUCAUACUGUGUAAGGAAAAUUACUUUUGUAUUGUUUGUUGGUUAUUUCCAAAAUAACCACCUUGUAAAUACUGGAAUUCUCGGGUGCCAA`, “RBNS enrichment (R)” read 0.357.
`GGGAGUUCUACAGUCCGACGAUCAAAACCAAGCUCACGUUUUUCUUAAGGGAAAAAUUUUCUUUCUUAAACUUACAUCUAGCAACUUGGAAAGCACUUUCUCUGGGGAUCUUCUUUUGUAACUUUGCAGACAAUGGAAUUCUCGGGUGCCAA` — result for “RBNS enrichment (R)”: 0.553.
Under “RBNS enrichment (R)”, `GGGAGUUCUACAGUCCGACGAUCGACAAUCCGAGCAGUGGAGUCAUUCAGCGGGAGCACUGCGCGCUAUCCCCUCACAUUCUCUAUGUACUAUGUAUGUAUGUAUUAUUAUUAUUGCUGCCAAGAGGGUCUGAUGGAAUUCUCGGGUGCCAA` is recorded as 0.517.
`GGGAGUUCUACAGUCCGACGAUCACAAUUCUUUAGCAGUGGACAGAACCCUUAAAUUCUAAAAAGCUACAAACAUCAAGCAAUUCAGGUACUAGGAUAACAUGUCAGUUUUGCUGGGUUGGAGGUGGGUAUCAUGGAAUUCUCGGGUGCCAA`: “RBNS enrichment (R)” 0.324.
`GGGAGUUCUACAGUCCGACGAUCAAUAUGAAUUCAAAAUUCCACUCUUAUCUGAUAGUUUGAGUCAUGGUCUUAGAUACCAGCUACCUACGAGAGAGAGAGAAAUUGGUUUGUAAUAUCAGUGUAAGUAAAAUUGGAAUUCUCGGGUGCCAA`: “RBNS enrichment (R)” 0.55.

A few entries again (study 5):
For `CTAAGGAC`, the E-score was -0.0684.
For `GCCACTCC`, the E-score was -0.134.
`CTGCGCAA` has an E-score of -0.0893.
`CGCACGAG` gave an E-score of -0.263.
With `CCAAGCAG` the E-score was -0.177.
With `CGGACGAG` the E-score was -0.217.
`AACTAACC` has an E-score of 0.11.
`GCGGAGTA` has an E-score of -0.133.
`AGATTGAC` has an E-score of -0.0674.
`GTATTTGA` has an E-score of 0.187.
